Published values gathered from unrelated publications.
Compare with care: the assays were run in different laboratories. Several values in a cell are separate wells, animals, samples, runs or records. ± marks the error that the study gave.
eis: N-acetyltransferase Eis (eis, Mycobacterium tuberculosis, UniProt P9WFK7)
Sequence of UniProt P9WFK7 (whole entry, looked up): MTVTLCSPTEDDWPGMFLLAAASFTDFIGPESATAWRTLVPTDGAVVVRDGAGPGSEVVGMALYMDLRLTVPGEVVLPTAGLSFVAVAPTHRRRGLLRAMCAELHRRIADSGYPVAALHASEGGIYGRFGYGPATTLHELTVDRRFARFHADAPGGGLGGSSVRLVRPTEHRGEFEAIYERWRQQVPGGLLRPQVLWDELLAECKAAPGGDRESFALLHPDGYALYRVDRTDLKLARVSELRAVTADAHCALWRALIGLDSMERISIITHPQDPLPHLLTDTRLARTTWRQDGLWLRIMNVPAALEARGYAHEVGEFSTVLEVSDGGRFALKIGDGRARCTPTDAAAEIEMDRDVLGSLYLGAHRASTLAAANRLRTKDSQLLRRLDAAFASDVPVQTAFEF
Polymerase acidic protein PA with PB1 subunit: Polymerase acidic protein, PA with PB1 subunit (Influenza A virus, UniProt P03433)
rep main protease: Replicase polyprotein 1ab, main protease (rep, Severe acute respiratory syndrome coronavirus 2, UniProt P0DTD1)
prcB open-gate 20S proteasome: Proteasome subunit beta, open-gate 20S proteasome (prcB, Mycobacterium tuberculosis, UniProt P9WHT9)
Sequence of UniProt P9WHT9 (whole entry, looked up): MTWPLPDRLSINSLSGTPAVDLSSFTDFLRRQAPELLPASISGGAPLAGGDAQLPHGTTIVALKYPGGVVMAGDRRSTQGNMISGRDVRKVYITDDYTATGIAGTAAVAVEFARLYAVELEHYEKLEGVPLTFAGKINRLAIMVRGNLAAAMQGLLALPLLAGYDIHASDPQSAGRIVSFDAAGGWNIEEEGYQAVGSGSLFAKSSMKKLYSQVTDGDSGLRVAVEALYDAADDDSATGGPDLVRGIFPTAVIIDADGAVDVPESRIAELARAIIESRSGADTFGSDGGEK
4'-phosphopantetheinyl transferase PptT: 4'-phosphopantetheinyl transferase PptT (Mycobacterium tuberculosis, UniProt O33336)
Sequence of UniProt O33336 (whole entry, looked up): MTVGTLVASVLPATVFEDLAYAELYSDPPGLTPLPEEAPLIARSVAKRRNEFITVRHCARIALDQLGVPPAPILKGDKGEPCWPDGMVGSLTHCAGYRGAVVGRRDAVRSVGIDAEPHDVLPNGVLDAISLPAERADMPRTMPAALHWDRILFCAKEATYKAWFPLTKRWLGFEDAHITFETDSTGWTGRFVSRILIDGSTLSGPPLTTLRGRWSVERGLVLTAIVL
NA: Neuraminidase (NA, Influenza A virus, UniProt P03482)
Sequence of UniProt P03482 (whole entry, looked up): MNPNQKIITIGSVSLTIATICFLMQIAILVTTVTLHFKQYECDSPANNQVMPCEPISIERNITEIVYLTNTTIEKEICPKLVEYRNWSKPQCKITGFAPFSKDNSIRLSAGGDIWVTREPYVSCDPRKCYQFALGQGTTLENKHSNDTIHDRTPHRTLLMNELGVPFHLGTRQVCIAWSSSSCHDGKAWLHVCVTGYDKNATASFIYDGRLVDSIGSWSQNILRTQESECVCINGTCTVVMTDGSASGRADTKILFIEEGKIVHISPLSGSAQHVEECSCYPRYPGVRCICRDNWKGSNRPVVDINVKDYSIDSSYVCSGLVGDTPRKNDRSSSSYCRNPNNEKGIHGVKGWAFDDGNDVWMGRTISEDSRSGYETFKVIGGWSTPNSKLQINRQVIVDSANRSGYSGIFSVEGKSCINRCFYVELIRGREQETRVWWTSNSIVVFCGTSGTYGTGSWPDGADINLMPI
Psmb8: Proteasome subunit beta type-8 (Psmb8, Mus musculus, UniProt P28063)
Sequence of UniProt P9WNX1 (whole entry, looked up): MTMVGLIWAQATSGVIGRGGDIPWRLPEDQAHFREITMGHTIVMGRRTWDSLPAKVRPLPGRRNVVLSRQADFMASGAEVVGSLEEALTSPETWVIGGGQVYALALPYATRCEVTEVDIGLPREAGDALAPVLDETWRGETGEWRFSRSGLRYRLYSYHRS
Sequence of UniProt P28063 (whole entry, looked up): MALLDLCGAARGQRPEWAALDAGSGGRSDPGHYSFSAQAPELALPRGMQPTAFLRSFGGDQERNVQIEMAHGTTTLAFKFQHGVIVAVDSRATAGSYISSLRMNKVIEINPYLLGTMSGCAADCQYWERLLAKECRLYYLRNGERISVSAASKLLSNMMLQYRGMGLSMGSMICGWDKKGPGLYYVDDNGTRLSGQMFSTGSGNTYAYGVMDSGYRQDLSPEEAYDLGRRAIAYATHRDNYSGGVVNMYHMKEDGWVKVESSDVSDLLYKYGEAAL
Sequence of UniProt I6WXK4 (whole entry, looked up): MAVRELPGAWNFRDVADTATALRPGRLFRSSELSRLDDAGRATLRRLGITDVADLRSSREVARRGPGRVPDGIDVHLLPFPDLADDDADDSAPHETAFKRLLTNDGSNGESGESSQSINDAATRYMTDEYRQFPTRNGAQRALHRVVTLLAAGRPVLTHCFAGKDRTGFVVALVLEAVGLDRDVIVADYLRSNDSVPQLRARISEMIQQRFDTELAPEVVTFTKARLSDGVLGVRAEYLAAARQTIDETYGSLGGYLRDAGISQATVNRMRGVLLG
Sequence of UniProt O60656 (whole entry, looked up): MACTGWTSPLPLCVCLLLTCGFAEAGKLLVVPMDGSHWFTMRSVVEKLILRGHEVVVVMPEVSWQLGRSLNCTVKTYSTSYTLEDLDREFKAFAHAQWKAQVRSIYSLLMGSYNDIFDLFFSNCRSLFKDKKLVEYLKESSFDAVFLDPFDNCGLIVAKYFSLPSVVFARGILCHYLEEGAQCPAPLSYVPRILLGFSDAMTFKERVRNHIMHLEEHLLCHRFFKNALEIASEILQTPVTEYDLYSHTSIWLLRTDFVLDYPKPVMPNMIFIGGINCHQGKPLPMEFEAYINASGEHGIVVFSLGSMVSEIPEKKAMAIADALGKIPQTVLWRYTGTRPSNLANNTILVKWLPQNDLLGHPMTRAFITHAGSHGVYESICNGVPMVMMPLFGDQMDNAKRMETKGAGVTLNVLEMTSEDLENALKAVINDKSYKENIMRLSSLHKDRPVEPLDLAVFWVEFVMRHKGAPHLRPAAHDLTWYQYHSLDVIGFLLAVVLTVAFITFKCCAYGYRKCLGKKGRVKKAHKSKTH
Sequence of UniProt P27487 (whole entry, looked up): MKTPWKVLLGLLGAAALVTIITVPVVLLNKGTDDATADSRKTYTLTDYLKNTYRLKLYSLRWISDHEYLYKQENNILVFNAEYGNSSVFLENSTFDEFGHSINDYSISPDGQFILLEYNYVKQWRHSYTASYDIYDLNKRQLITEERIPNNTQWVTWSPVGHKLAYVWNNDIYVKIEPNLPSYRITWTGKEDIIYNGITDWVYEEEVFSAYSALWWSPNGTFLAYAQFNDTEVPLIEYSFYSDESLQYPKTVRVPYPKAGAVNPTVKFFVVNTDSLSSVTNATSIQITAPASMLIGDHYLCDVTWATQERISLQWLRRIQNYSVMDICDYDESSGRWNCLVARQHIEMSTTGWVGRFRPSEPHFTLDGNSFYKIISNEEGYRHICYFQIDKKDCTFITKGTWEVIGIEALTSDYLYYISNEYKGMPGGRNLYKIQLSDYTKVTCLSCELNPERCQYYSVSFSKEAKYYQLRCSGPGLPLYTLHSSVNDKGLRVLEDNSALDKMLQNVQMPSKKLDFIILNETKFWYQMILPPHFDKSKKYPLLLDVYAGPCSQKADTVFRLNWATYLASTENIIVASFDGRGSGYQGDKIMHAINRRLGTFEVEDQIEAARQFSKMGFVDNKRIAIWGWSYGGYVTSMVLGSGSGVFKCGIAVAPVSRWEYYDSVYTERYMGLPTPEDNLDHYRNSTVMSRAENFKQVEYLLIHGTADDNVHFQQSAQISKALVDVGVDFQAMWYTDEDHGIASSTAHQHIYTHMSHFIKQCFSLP
Sequence of UniProt P31652 (whole entry, looked up): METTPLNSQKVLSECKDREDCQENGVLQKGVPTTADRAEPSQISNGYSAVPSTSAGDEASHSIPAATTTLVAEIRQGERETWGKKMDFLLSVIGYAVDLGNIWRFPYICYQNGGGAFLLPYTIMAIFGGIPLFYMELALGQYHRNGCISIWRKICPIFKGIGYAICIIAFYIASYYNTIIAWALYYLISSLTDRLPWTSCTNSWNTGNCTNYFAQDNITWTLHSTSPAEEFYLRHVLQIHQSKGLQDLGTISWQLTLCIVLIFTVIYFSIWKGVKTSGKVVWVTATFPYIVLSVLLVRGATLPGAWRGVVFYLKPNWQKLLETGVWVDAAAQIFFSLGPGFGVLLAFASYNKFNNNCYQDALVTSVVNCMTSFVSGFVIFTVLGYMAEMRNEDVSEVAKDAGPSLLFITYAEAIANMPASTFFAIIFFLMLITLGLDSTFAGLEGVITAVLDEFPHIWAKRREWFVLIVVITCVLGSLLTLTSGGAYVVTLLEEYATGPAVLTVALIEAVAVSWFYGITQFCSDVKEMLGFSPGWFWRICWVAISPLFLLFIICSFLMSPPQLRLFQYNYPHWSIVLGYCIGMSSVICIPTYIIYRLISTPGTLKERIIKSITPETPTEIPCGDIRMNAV
Sequence of UniProt P33261 (whole entry, looked up): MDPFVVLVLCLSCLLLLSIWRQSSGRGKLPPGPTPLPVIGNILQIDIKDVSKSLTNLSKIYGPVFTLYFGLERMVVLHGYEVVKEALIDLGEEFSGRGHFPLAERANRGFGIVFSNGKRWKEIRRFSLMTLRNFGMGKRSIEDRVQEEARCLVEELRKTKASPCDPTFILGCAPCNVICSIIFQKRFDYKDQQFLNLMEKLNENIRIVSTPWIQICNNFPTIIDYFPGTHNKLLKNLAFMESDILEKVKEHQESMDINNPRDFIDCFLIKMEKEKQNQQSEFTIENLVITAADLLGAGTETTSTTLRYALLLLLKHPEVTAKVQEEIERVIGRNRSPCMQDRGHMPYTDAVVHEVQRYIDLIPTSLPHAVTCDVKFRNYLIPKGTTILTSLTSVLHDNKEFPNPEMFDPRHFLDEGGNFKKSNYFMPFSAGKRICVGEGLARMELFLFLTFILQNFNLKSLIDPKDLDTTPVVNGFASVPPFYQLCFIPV

Cc1cc(=O)oc2cc(OCCCCn3cc(COc4ccc(N5C(N)=NC(N)=NC56CCCCC6)cc4)nn3)ccc12 has an IC50 of 0.63 µM and ~1 µM (Dihydrofolate reductase (folA, Mycobacterium tuberculosis, UniProt P9WNX1)).
With Nc1nc(SCCN2CCCC2)nc2sc3c(c12)CCC3 the IC50 was 2.2 ± 0.3 µM (eis; inhibitor).
CC(=O)Oc1cccc2[nH]cc(CC[N+](C)(C)C)c12 gave an IC50 of 3.5 µM (Sodium-dependent serotonin transporter (Slc6a4, Rattus norvegicus, UniProt P31652); transporter uptake, inhibitor, radiometric).
The IC50 of Nc1nc(SCCN2CCCCC2)nc2sc3c(c12)CCCC3 is reported as 1.1 ± 0.1 µM (eis; inhibitor).
With Cc1cc(-c2ccccc2)n2nc(C(=O)Nc3sc4c(c3C(N)=O)CCCCC4)nc2n1 the IC50 was 1.1 ± 0.3 µM (Polymerase acidic protein PA with PB1 subunit; PA-PB1 interaction, inhibitor, ELISA).
N#Cc1ccc(Nc2cccc(C(=O)NCCc3c[nH]c4cc(F)ccc34)c2)cc1 has an IC50 of 37 ± 6 µM (rep main protease; cell-based).
For CC(=O)N[C@@H](Cc1ccc(O)cc1)C(=O)N[C@@H](CC(N)=O)C(=O)N1CCC[C@H]1C(=O)N[C@@H](Cc1ccccc1)C(=O)N[C@@H](CCC(=O)O)C(=O)N[C@@H](CCC(=O)O)C(=O)NCC(=O)NCC(N)=O, the IC50 was 107 µM (EH domain-containing protein 1 (Homo sapiens, UniProt Q9H4M9); ligand displacement, FP).
COC[C@H](NC(=O)[C@H](CC(=O)N1CCCCC1)NC(=O)CCc1ccccc1)C(=O)NCc1cccc2ccccc12 gave an IC50 of 0.016 ± 0.001 µM (prcB open-gate 20S proteasome; enzyme activity, inhibitor; added: LLVY substrate).
With Cc1nc(=O)c2cc(CN(C)c3cccc(C(=O)N4CCCS(=N)(=O)CC4)c3)ccc2[nH]1 (centres unmarked) the IC50 was 24 µM (4'-phosphopantetheinyl transferase PptT; enzyme activity, inhibitor, fluorescence polarization; enzyme 100 nM).
The IC50 of O=C(Nc1nc2c(s1)CCN(Cc1ccccc1)C2)c1ccc2c(=O)n3c(nc2c1)CCCCC3 is reported as 59 ± 10 µM (rep main protease; cell-based).
For Nc1nnc(-c2cc3c(ccc4ccccc43)oc2=O)s1, the IC50 was about 4 µM (UvrABC system protein A (uvrA, Mycobacterium tuberculosis, UniProt P9WQK7)).
Nc1nc(SCCN2CCCCC2)nc2sc3c(c12)CCC(c1ccccc1)C3 (centres unmarked) has an IC50 of 16 ± 2 µM (eis; inhibitor).
CC(C)C[C@@H]1NC(=O)CCCCCCCC[n+]2cc(n(CCCCCCCCc3ccccc3)c2)C[C@@H](C(=O)N[C@@H](CO)C(=O)N[C@H](C(N)=O)[C@@H](C)OP(=O)([O-])O)NC1=O has an IC50 of 0.83 µM (Serine/threonine-protein kinase PLK1, polo-box domain (PLK1, Homo sapiens, UniProt P53350)).
With Nc1nc(SCCCN2CCCCC2)nc2sc3c(c12)CCC3 the IC50 was 0.75 ± 0.06 µM (eis; inhibitor).
O=C(Nc1nc2c(s1)CN(Cc1ccccc1)CC2)c1ccc2c(=O)n3c(nc2c1)CCCCC3 has an IC50 of 40 ± 7 µM (rep main protease; cell-based).
Cc1cc(-c2ccccc2)nc2nc(C(=O)Nc3sc4c(c3C(N)=O)CCCCC4)nn12 has an IC50 of 28 ± 1 µM (Polymerase acidic protein PA with PB1 subunit; PA-PB1 interaction, inhibitor, ELISA).
CC1CCc2c(sc3nc(SCCN4CCCCC4)nc(N)c23)C1 (centres unmarked) gave an IC50 of 2 ± 0.3 µM (eis; inhibitor).
Cc1cc(O)cc(O)c1C(=O)O[C@@H]1CC2=C(COC(/C=C/CO)=C2)C(=O)[C@]1(C)O gave an IC50 of 261 µM and 244 µM (NA; influenza A virus H3N2).
For Nc1nc(SCC(=O)NCCN2CCOCC2)nc2sc3c(c12)CCC(c1ccccc1)C3 (centres unmarked), the IC50 was 16 ± 3 µM (eis; inhibitor).
Cc1nc(=O)c2cc(CN(C)c3cccc(C(=O)N[C@@]4(C(=O)O)CC[C@@H](C(=O)O)C4)c3)ccc2[nH]1 gave an IC50 of 0.06 µM (4'-phosphopantetheinyl transferase PptT; enzyme activity, inhibitor, fluorescence polarization; enzyme 100 nM).
For CCN(CC)C(=O)C[C@H](NC(=O)CCc1ccccc1)C(=O)N[C@@H](C)C(=O)NCc1cccc2ccccc12, the IC50 was 0.041 ± 0.006 µM (prcB open-gate 20S proteasome; enzyme activity, inhibitor; added: LLVY substrate).
CC(C)[C@H](NC(=O)N[C@H](C(=O)N[C@H]1/C=C/CCNC(=O)/C=C/[C@H](C(C)C)NC1=O)C(C)C)C(=O)O has an IC50 of 0.18 µM (Psmb8; inhibitor).
With O=C(NN=Cc1cc(O)c(O)cc1O)c1cc2ccccc2cc1O the IC50 was 6.8 µM and 7.9 µM (4'-phosphopantetheinyl transferase PptT; enzyme activity, inhibitor, fluorescence polarization; enzyme 100 nM).
The IC50 of CC(C)C[C@H](NC(=O)CNC(=O)[C@@H](N)Cc1c[nH]c2ccccc12)C(=O)N1CCC[C@H]1C(=O)O is reported as 351 ± 8.3 µM (Dipeptidyl peptidase 4 (DPP4, Homo sapiens, UniProt P27487)).
The IC50 of O=S(=O)(O)CCOCC1CSSCC(COCCS(=O)(=O)O)SS1 (centres unmarked) is reported as 29 ± 1.6 µM (Response regulator PhoP (Mycobacterium tuberculosis, UniProt P71814); DNA binding, fluorescence polarization; added: 6-FAM DNA 10 nM).
With N[C@@H](CCC(=O)N[C@@H](CS[Se]Cc1ccc(C(=O)Nc2cc(C(F)(F)F)c(Br)c(C(F)(F)F)c2)cc1)C(=O)NCC(=O)O)C(=O)O the IC50 was over 100 µM (Triple specificity protein phosphatase PtpB (ptpB, Mycobacterium tuberculosis, UniProt I6WXK4); enzyme activity, inhibitor; added: glutathione 1 mM).
The IC50 of COC(=O)[C@@H](CCCNC(=O)OC(C)(C)C)NC(=O)c1ccc(NCc2ccc3nc(N)nc(N)c3c2Cl)cc1 is reported as over 25 µM (4'-phosphopantetheinyl transferase PptT; enzyme activity, inhibitor, fluorescence polarization; enzyme 100 nM).
For Nc1nc(SCCN2CCCCC2)nc2sc3c(c12)CCCCC3, the IC50 was 7.6 ± 1.1 µM (eis; inhibitor).
CCCCCc1cc(O)c2c(c1)OC(C)(C)C1CCC(C)=CC21 (single isomer, unassigned; (-)) gave an IC50 of 0.45 µM (UDP-glucuronosyltransferase 1A9 (UGT1A9, Homo sapiens, UniProt O60656); enzyme activity, inhibitor; HEK293; pH 7.4).
The IC50 of CCCCCCCCC/C=C/C=C/C(=O)N[C@H](C(=O)N[C@H]1C[C@@H](O)CCNC(=O)/C=C/[C@H](C)NC1=O)[C@@H](C)O is reported as 0.0013 µM (Psmb8; inhibitor).
The IC50 of Cc1nc(=O)c2cc(CN(C)c3cccc(C(=O)N[C@@H](CCC(=O)O)C(=O)O)c3)ccc2[nH]1 is reported as 0.09 µM (4'-phosphopantetheinyl transferase PptT; enzyme activity, inhibitor, fluorescence polarization; enzyme 100 nM).
The IC50 of COC(=O)[C@H](CC(C)C)NC(=O)[C@@H]1CCCN1C(=O)[C@@H](NC(=O)[C@@H](NC(=O)c1cnccn1)C(C)C)C(C)C is reported as 76 µM (Chaperone protein DnaK, with DnaJ2, GrpE (dnaK, Mycobacterium tuberculosis, UniProt P9WMJ9)).
Cc1nc(=O)c2cc(CN(C)c3ccc(C(=O)NCCc4nn[nH]n4)s3)ccc2[nH]1 gave an IC50 of 0.2 µM (4'-phosphopantetheinyl transferase PptT; enzyme activity, inhibitor, fluorescence polarization; enzyme 100 nM).
The IC50 of CCCCCc1cc(O)c2c(c1)OC(C)(C)C1CCC(C)=CC21 (single isomer, unassigned; (-)) is reported as 0.21 ± 0.056 µM (Cytochrome P450 2C19 (CYP2C19, Homo sapiens, UniProt P33261); inhibitor; human, pooled liver microsomes; pH 7.4, added: omeprazole).
With Cc1nc(=O)c2cc(CN(C)c3ccc(C(=O)N[C@H](CCc4nn[nH]n4)C(=O)O)s3)ccc2[nH]1 the IC50 was 0.08 µM (4'-phosphopantetheinyl transferase PptT; enzyme activity, inhibitor, fluorescence polarization; enzyme 100 nM).
CC1CCc2c(sc3nc(SCC(=O)NCCN4CCOCC4)nc(N)c23)C1 (centres unmarked) gave an IC50 of 0.47 ± 0.08 µM (eis; inhibitor).
For Cc1nc(=O)c2cc(CN(C)c3ccc(C(=O)N4CCc5ccc(C(=O)O)cc5C4)s3)ccc2[nH]1, the IC50 was 2.03 µM (4'-phosphopantetheinyl transferase PptT; enzyme activity, inhibitor, fluorescence polarization; enzyme 100 nM).
Cc1cc(O)cc(O)c1C(=O)O[C@@H]1CC2=C(COC(CC(C)O)=C2)C(=O)[C@]1(C)O (some centres unmarked) has an IC50 of 231 µM and 236 µM (NA; influenza A virus H3N2).

A few entries again:
For Nc1nnc(-c2cc3c(ccc4ccccc43)oc2=O)s1, the IC50 was about 4 µM (UvrABC system protein A (uvrA, Mycobacterium tuberculosis, UniProt P9WQK7)).
Nc1nc(SCCN2CCCCC2)nc2sc3c(c12)CCC(c1ccccc1)C3 (centres unmarked) has an IC50 of 16 ± 2 µM (eis; inhibitor).
CC(C)C[C@@H]1NC(=O)CCCCCCCC[n+]2cc(n(CCCCCCCCc3ccccc3)c2)C[C@@H](C(=O)N[C@@H](CO)C(=O)N[C@H](C(N)=O)[C@@H](C)OP(=O)([O-])O)NC1=O has an IC50 of 0.83 µM (Serine/threonine-protein kinase PLK1, polo-box domain (PLK1, Homo sapiens, UniProt P53350)).
With Nc1nc(SCCCN2CCCCC2)nc2sc3c(c12)CCC3 the IC50 was 0.75 ± 0.06 µM (eis; inhibitor).
